Results gathered from unrelated publications.
Several values in a cell are separate wells, animals, samples, runs or records. Numbers after ± are the reported error.

SMILES | tested on | assay | system | setting | how to read | measurement | value
O=C(CCCCCCc1ccc(O)c(O)c1)c1c(O)cccc1O | SARS-CoV-2 | – | HEK293T ACE2, Alpha B.1.1.7 | – | reference: CC50 over EC50 | selectivity index | 2.2
CC1OC(OC2C(OC(=O)C34CCC(C)(C)CC3C3=CCC5C6(C)CCC(OC7OC(CO)C(O)C(O)C7O)C(C)(C)C6CCC5(C)C3(C)CC4O)OCC(O)C2O)C(O)C(O)C1OC1OCC(O)C(OC2OCC(O)C(OC3OCC(O)C(O)C3O)C2O)C1O (stereo not shown) | SARS-CoV-2 | viral infection | Vero, omicron variant B.1.1.529 | – | – | IC50 | 1450 nM
CC(C)CC(C(=O)N1CC2(CC1C#N)C(=O)Nc1ccccc12)N(C)C(=O)c1cc2c(F)cc(F)c(F)c2[nH]1 (stereo not shown) | SARS-CoV-2 | viral replication, infectious virus | Vero E6-TMPRSS2, Omicron variant | 0.3 µM | – | inhibition | 100% and 99.9% and 99.6%
Oc1ccc(CCCCCCCCC(O)c2c(O)cccc2O)cc1O (stereo not shown) | SARS-CoV-2 | – | HEK293T ACE2, Gamma P.1 | – | reference: CC50 over EC50 | selectivity index | 2.4
CCc1nnc(NS(=O)(=O)c2ccc(NC(=O)c3cccc4ccccc34)cc2)s1 | SARS-CoV-2 | viral entry | Omicron BA.5 | 120 h | – | IC50 | 1500 nM
N#CC1(c2ccc3c(N)ncnn23)OC(COP(=O)(O)OP(=O)(O)OP(=O)(O)O)C(O)C1O (stereo not shown) | SARS-CoV-2 | cytopathic effect | Vero C1008, Omicron BA.1 | 48 h | – | IC100 | 4.88 ± 0.22 µM
CC(C)c1ccc(C(=O)Nc2ccc(CN)cc2)c(O)c1 | SARS-CoV-2 | viral infection | D614G | 10 µM | – | inhibition | > 56%
CC(=O)Oc1ccc(CCCCCCCCC(=O)c2c(OC(C)=O)cccc2OC(C)=O)cc1OC(C)=O | SARS-CoV-2 | – | HEK293T ACE2, Alpha B.1.1.7 | – | reference: CC50 over EC50 | selectivity index | 4.3
CCn1ccc(-c2cc(-c3cnn(C)c3)cc([C@@H](C)NC(=O)c3cc(OCCN(C)C)ccc3C)c2)n1 | SARS-CoV-2 | – | WA1 lineage passage 11 | concentration not given | – | Q269H mutation frequency | 0.44% and 1.38% and 0.41% and 0%
COc1ccc2ccc(C(=O)Nc3ccc(CN)cc3)c(O)c2c1 | SARS-CoV-2 | viral infection | D614G | 10 µM | – | inhibition | 49%
CC(C)C(=O)OC[C@H]1O[C@@](C#N)(n2ccc(N)nc2=O)[C@H](O)[C@@H]1O | SARS-CoV-2 | viral replication | Calu-3, Beta | – | – | EC90 | 200 ± 50 nM
O=C(CCCCCCCCCCc1ccc(O)c(O)c1)c1c(O)cccc1O | SARS-CoV-2 | viral replication, MTT | HEK293T ACE2, Delta B.1.617.2 | – | – | EC50 | 7300 nM
O=C(NC1CCN(c2ncnc3[nH]cnc23)CC1)c1cccc(NS(=O)(=O)c2ccc(C(F)(F)F)cc2)c1 | Replicase polyprotein 1ab, nsp14 W385A (rep, Severe acute respiratory syndrome coronavirus 2, UniProt P0DTD1, W6310A) | thermal shift | SARS-CoV-2 | – | – | ΔTm | 2 °C
